# Experimental data gathered from unrelated publications.
# Several values in a cell are separate wells, animals, samples, runs or records.
# Technique: steady-state kinetics
# B1: SUOX P168A (Homo sapiens, UniProt P51687); chain ESTHIYTKEEVSSHTSPETGIWVTLGSEVFDVTEFVDLHPGGPSKLMLAAGGPLEPFWALYAVHNQSHVRELLAQYKIGELNPEDKVAATVETSDPYADDPVRHPALKVNSQRPFNAEPPPELLTENYITPNPIFFTRNHLPVPNLDPDTYRLHVVGAPGGQSLSLSLDDLHNFPRYEITVTLQCAGNRRSEMTQVKEVKGLEWRTGAISTARWAGARLCDVLAQAGHQLCETEAHVCFEGLDSDPTGTAYGASIPLARAMDPEAEVLLAYEMNGQPLPRDHGFPVRVVVPGVVGARHVKWLGRVSVQPEESYSHWQRRDYKGFSPSVDWETVDFDSAPSIQELPVQSAITEPRDGETVESGEVTIKGYAWSGGGRAVIRVDVSLDGGLTWQVAKLDGEEQRPRKAWAWRLWQLKAPVPAGQKELNIVCKAVDDGYNVQPDTVAPIWNLRGVLSNAWHRVHVYVSP
# B2: alanine racemase H166F (Geobacillus stearothermophilus, UniProt P10724); chain MNDFHRDTWAEVDLDAIYDNVENLRRLLPDDTHIMAVVKANAYGHGDVQVARTALEAGASRLAVAFLDEALALREKGIEAPILVLGASRPADAALAAQQRIALTVFRSDWLEEASALYSGPFPIHFHLKMDTGMGRLGVKDEEETKRIVALIERHPHFVLEGLYTFFATADEVNTDYFSYQYTRFLHMLEWLPSRPPLVHCANSAASLRFPDRTFNMVRFGIAMYGLAPSPGIKPLLPYPLKEAFSLHSRLVHVKKLQPGEKVSYGATYTAQTEEWIGTIPIGYADGWLRRLQHFHVLVDGQKAPIVGRICMDQCMIRLPGPLPVGTKVTLIGRQGDEVISIDDVARHLETINYEVPCTISYRVPRIFFRHKRIMEVRNAIGRGESSA
# B3: MTRR A129T (Homo sapiens, UniProt Q9UBK8); chain MRRFLLLYATQQGQAKAIAEEICEQAVVHGFSADLHCISESDKYDLKTETAPLVVVVSTTGTGDPPDTARKFVKEIQNQTLPVDFFAHLRYGLLGLGDSEYTYFCNGGKIIDKRLQELGARHFYDTGHTDDCVGLELVVEPWIAGLWPALRKHFRSSRGQEEISGALPVASPASSRTDLVKSELLHIESQVELLRFDDSGRKDSEVLKQNAVNSNQSNVVIEDFESSLTRSVPPLSQASLNIPGLPPEYLQVHLQESLGQEESQVSVTSADPVFQVPISKAVQLTTNDAIKTTLLVELDISNTDFSYQPGDAFSVICPNSDSEVQSLLQRLQLEDKREHCVLLKIKADTKKKGATLPQHIPAGCSLQFIFTWCLEIRAIPKKAFLRALVDYTSDSAEKRRLQELCSKQGAADYSRFVRDACACLLDLLLAFPSCQPPLSLLLEHLPKLQPRPYSCASSSLFHPGKLHFVFNIVEFLSTATTEVLRKGVCTGWLALLVASVLQPNIHASHEDSGKALAPKISISPRTTNSFHLPDDPSIPIIMVGPGTGIAPFIGFLQHREKLQEQHPDGNFGAMWLFFGCRHKDRDYLFRKELRHFLKHGILTHLKVSFSRDAPVGEEEAPAKYVQDNIQLHGQQVARILLQENGHIYVCGDAKNMAKDVHDALVQIISKEVGVEKLEAMKTLATLKEEKRYLQDIWS
# B4: Mgst1 unactivated (Rattus norvegicus, UniProt P08011); chain ADLKQLMDNEVLMAFTSYATIILAKMMFLSSATAFQRLTNKVFANPEDCAGFGKGENAKKFLRTDEKVERVRRAHLNDLENIVPFLGIGLLYSLSGPDLSTALIHFRIFVGARIYHTIAYLTPLPQPNRGLAFFVGYGVTLSMAYRLLRSRLYL
# B5: enzyme (Bacillus pumilus, UniProt A8FFI9); chain EARSIAWSVDEFFKNREGTFVIQEVKEKSPWVYNKKRAKERFAPQSTFKVANALIGLQTGAVRDEYDIKYWDGVKREIDNWNRDHTLGSGMRDSVVWYYQAMARDIGEERMNHWVKAIHYGNKDISGGIDQFWLSSTLRISPIEQVRFLKQLYEETLPFDLKNMRTVKRMMVQEEEKHATLYGKTGSGSDIGWYVGFIKHEHKTYILATNIKGTGIEAKDITYRILKKYHLMEASV
# UniProt O60656, sequence (whole entry, looked up): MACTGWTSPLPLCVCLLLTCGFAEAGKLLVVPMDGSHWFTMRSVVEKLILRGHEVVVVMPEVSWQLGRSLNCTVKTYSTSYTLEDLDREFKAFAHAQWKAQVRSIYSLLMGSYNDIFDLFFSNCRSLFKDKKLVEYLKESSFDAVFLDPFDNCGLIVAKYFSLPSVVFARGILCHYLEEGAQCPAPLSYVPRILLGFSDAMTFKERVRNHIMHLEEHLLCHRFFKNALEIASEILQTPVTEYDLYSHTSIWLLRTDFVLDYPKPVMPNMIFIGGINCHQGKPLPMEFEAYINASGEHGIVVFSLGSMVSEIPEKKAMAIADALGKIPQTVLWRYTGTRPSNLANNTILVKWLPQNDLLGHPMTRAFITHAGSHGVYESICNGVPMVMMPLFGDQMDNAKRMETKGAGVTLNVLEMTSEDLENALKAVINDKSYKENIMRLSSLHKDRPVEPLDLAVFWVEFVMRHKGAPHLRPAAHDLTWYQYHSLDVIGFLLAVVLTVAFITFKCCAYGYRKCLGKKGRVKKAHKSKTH
# UniProt Q99518, sequence (whole entry, looked up): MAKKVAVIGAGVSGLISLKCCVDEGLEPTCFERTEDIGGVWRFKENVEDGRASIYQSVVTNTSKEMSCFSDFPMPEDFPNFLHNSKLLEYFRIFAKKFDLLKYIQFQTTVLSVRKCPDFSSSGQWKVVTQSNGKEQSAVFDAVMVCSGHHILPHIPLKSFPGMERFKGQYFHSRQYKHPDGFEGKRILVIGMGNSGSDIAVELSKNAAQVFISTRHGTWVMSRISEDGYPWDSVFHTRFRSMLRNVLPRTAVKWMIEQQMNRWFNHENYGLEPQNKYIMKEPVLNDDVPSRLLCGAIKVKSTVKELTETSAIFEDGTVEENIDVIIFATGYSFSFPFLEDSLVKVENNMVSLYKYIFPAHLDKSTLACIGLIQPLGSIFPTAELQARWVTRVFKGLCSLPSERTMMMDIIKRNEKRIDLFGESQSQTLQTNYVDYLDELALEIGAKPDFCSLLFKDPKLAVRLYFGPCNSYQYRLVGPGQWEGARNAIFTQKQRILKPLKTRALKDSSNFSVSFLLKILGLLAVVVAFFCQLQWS
# UniProt Q92UV7, sequence (whole entry, looked up): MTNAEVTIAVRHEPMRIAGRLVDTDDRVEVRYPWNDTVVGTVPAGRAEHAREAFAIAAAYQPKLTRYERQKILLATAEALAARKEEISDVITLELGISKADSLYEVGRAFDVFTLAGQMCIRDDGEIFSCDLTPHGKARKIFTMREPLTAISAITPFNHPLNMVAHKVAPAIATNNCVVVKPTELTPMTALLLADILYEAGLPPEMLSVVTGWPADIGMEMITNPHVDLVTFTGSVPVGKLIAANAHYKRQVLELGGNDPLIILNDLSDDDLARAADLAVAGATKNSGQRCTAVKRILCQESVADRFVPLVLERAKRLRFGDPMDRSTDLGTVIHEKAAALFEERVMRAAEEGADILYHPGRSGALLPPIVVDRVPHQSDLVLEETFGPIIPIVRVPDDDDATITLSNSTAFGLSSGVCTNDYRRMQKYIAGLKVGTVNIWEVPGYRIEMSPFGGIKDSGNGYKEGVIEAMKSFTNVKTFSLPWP
# UniProt Q9LK73, sequence (whole entry, looked up): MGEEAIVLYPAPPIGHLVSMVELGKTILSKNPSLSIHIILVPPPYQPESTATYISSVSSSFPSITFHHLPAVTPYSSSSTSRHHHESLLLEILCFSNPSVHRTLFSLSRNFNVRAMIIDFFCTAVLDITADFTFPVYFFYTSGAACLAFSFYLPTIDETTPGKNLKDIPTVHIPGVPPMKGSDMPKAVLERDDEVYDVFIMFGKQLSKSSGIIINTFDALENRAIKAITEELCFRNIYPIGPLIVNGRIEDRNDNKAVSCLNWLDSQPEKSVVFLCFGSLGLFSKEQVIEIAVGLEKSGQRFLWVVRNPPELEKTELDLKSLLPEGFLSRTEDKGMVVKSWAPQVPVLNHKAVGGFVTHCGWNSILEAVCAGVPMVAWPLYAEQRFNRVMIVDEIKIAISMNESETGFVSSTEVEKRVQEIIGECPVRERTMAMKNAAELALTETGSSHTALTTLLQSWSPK
# UniProt Q9STE6, sequence (whole entry, looked up): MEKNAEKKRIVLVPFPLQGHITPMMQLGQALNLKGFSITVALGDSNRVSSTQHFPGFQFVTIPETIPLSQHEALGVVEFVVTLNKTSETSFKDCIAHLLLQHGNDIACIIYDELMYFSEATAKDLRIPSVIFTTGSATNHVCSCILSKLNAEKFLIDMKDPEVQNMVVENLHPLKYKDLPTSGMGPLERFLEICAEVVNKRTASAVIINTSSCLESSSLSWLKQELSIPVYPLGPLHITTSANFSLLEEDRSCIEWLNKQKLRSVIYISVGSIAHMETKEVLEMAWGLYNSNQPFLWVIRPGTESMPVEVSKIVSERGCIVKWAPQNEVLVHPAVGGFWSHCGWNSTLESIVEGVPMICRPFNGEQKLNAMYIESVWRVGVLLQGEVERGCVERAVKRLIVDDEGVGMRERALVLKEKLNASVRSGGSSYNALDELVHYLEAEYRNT
# UniProt B7MMH5, sequence (whole entry, looked up): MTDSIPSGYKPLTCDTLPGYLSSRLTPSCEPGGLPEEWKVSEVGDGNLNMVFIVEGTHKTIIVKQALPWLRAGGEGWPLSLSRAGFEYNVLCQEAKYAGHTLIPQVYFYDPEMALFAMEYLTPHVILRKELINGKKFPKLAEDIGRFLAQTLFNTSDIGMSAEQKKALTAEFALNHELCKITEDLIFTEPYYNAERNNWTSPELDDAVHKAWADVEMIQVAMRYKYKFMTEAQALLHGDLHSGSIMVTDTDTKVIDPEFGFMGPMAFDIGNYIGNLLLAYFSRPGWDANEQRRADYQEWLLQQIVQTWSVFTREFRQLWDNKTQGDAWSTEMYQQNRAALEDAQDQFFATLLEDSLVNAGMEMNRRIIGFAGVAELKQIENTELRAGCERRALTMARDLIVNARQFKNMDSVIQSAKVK
Molecule,substrate,test system,conditions,Km
B1 (SUOX P168A),O=S(O)O,,"pH 8, 25 °C, added: oxidized cyt c 400 µM",33 µM
"enzyme (Arabidopsis thaliana, UniProt Q9STE6)",CC(=O)N[C@H]1[C@@H](OP(=O)(O)OP(=O)(O)OC[C@H]2O[C@@H](n3ccc(=O)[nH]c3=O)[C@H](O)[C@@H]2O)O[C@H](CO)[C@@H](O)[C@@H]1O,,"pH 7.5, 25 °C",0.78 µM
"mtnK (Escherichia coli, UniProt B7MMH5)",Nc1ncnc2c1ncn2[C@@H]1O[C@H](COP(=O)(O)OP(=O)(O)OP(=O)(O)O)[C@@H](O)[C@H]1O,,"pH 7.8, 30 °C, added: 5-deoxyribose",83 µM
"enzyme (Sinorhizobium meliloti, UniProt Q92UV7)",NC(=O)c1ccc[n+]([C@@H]2O[C@H](COP(=O)(O)OP(=O)(O)OC[C@H]3O[C@@H](n4cnc5c(N)ncnc54)[C@H](O)[C@@H]3O)[C@@H](O)[C@H]2O)c1,,"pH 7.5, 30 °C, cofactor varied",58 µM
B2 (alanine racemase H166F),C[C@@H](N)C(=O)O,,"pH 9, room temperature, added: NAD+ 10 mM",3900 µM
"FMO2 (Homo sapiens, UniProt Q99518)",CN1CCC[C@H]1c1cccnc1,HEK293 microsomes,"37 °C, not purified, added: NADPH regenerating system",4500 µM
B3 (MTRR A129T),O=C1C(Cl)=CC(=Nc2ccc(O)cc2)C=C1Cl,,"pH 7.5, 37 °C, substoichiometric FMN, added: NADPH",1.1 µM
"Ptb (Listeria monocytogenes, UniProt Q8Y7B7)",CCCCC(=O)SCCNC(=O)CCNC(=O)[C@H](O)C(C)(C)COP(=O)(O)OP(=O)(O)OC[C@H]1O[C@@H](n2cnc3c(N)ncnc32)[C@H](O)[C@@H]1OP(=O)(O)O,,"pH 7.5, 25 °C, apparent",161 µM
"UGT88A1 (Arabidopsis thaliana, UniProt Q9LK73)",O=c1c(O)c(-c2ccc(O)c(O)c2)oc2cc(O)cc(O)c12,,"pH 6.8, 37 °C, added: UDP-glucose",360 µM
"UGT1A9 (Homo sapiens, UniProt O60656)",O=c1cc(-c2ccc(O)c(O)c2)oc2cc(O)ccc12,,"pH 7.4, 37 °C",2.44 µM and 6.38 µM and 2.45 µM
B4 (Mgst1 unactivated),CC(=O)c1ccc(Cl)c([N+](=O)[O-])c1,,"pH 6.5, 5 °C, potassium phosphate 0.1 M, unactivated enzyme, added: GSH 5 mM",77 µM
B5 (enzyme),CC1(C)S[C@@H]2[C@H](NC(=O)[C@H](N)c3ccccc3)C(=O)N2[C@H]1C(=O)O,,pH 7,27 µM

# A few entries again:
Molecule,substrate,test system,conditions,Km
"UGT1A9 (Homo sapiens, UniProt O60656)",O=c1cc(-c2ccc(O)c(O)c2)oc2cc(O)ccc12,,"pH 7.4, 37 °C",2.44 µM and 6.38 µM and 2.45 µM
B4 (Mgst1 unactivated),CC(=O)c1ccc(Cl)c([N+](=O)[O-])c1,,"pH 6.5, 5 °C, potassium phosphate 0.1 M, unactivated enzyme, added: GSH 5 mM",77 µM
